Measurements gathered from unrelated publications.
Parts stem from different laboratories: compare values within a part only.

Set 1 — organism: Sarcocystis neurona; read-out: parasite growth; concentration: 10 µM
The inhibition of `CN(CCOc1ccc(CC2SC(=O)NC2=O)cc1)c1ccccn1` (stereo not shown) is reported as 11.1%.
With `COc1ccnc(C[S+]([O-])c2nc3ccc(OC(F)F)cc3[nH]2)c1OC` (stereo not shown) the inhibition was -50.6%.
`CC[C@H](C)C(=O)O[C@H]1C[C@@H](C)C=C2C=C[C@H](C)[C@H](CC[C@@H]3C[C@@H](O)CC(=O)O3)[C@H]21` gave an inhibition of -22.5%.
`CCCCC(=O)O[C@H]1CC[C@H]2[C@@H]3CCc4cc(O)ccc4[C@H]3CC[C@]12C` has an inhibition of -26.8%.
`COC1=C(OC)C(=O)C(CCCCCCCCCCO)=C(C)C1=O` has an inhibition of -26%.
The inhibition of `CCOC(=O)OC(C)OC1=C(C(=O)Nc2ccccn2)N(C)S(=O)(=O)c2ccccc21` (stereo not shown) is reported as -23.9%.
The inhibition of `C[N+]1(C)CCC(OC(=O)C(O)(c2ccccc2)C2CCCC2)C1.[Br-]` (stereo not shown) is reported as 2%.
For `N[C@@H](Cc1cc(I)c(Oc2cc(I)c(O)c(I)c2)c(I)c1)C(=O)O`, the inhibition was -36.8%.
`O=C(CCCN1CC=C(n2c(=O)[nH]c3ccccc32)CC1)c1ccc(F)cc1` gave an inhibition of 29.6%.

Set 2 — read-out: ligand displacement; method: radioligand; concentration: 10 µM
Target: 5-hydroxytryptamine receptor 1B (HTR1B, Homo sapiens, UniProt P28222)
UniProt P28222, sequence (whole entry, looked up): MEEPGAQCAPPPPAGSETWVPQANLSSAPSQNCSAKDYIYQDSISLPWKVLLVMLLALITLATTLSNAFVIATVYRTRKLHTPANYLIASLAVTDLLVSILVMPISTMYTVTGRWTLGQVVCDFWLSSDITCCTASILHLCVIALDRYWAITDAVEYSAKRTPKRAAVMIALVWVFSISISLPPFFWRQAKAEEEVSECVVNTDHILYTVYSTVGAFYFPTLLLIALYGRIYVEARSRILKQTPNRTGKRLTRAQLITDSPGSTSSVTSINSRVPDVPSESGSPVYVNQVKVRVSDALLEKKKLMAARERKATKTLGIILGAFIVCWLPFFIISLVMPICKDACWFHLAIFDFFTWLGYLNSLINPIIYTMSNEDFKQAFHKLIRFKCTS
`O=c1nc(-c2ccccn2)sc2ccccc12` has an inhibition of -1.9%.
The inhibition of `COc1ccc2cc(OCC3(C(=O)O)CN(C(=O)c4ccc(F)cc4)C3)ccc2c1` is reported as -11.2%.
`O=C(O)[C@@H]1[C@@H](Cn2nnc3ccccc3c2=O)CC[C@H]1C(=O)c1ccc(OCCC2CCOCC2)cc1` has an inhibition of 8.05%.
`C[C@H](NC(=O)Nc1cc2[nH]ncc2c(CO)n1)c1ccccn1` has an inhibition of -11.6%.
`C[C@@H]1CN(c2cc(-c3nn(C)c4ccc(OC5(C)CC5)cc34)ncn2)C[C@H](C)O1` gave an inhibition of 7.83%.
`CCNC(=O)c1cc2c(N3CCOC[C@@H]3C)ccnc2[nH]1` has an inhibition of -1.66%.
For `O=C(c1ccc(F)cc1)N1CC(COc2ccc(Br)cc2)(C(=O)O)C1`, the inhibition was -16.9%.
`CCOC(=O)c1cc2cc(-c3cc(C(=O)NCc4ccc(C(=O)O)cc4)nn3C)ccc2[nH]1` has an inhibition of 6.12%.
`N#Cc1ccc(Nc2ccc3[nH]c(=O)[nH]c3c2)c(Cl)c1` has an inhibition of 6.7%.
With `Cc1nc(Cc2cccc(C(F)(F)F)c2)sc1-c1ccc(C(N)=O)nc1` the inhibition was 7.99%.

Set 3 — read-out: potassium current; mode: inhibitor; method: manual patch clamp; cells: HEK293 stably expressing hERG
Structure (SMILES): O=C1CCC(N2Cc3cc(C4CCN(Cc5ccccc5)CC4)ccc3C2=O)C(=O)N1 (stereo not shown)
Target: Voltage-gated inwardly rectifying potassium channel KCNH2 (KCNH2, Homo sapiens, UniProt Q12809)
UniProt Q12809, sequence (whole entry, looked up): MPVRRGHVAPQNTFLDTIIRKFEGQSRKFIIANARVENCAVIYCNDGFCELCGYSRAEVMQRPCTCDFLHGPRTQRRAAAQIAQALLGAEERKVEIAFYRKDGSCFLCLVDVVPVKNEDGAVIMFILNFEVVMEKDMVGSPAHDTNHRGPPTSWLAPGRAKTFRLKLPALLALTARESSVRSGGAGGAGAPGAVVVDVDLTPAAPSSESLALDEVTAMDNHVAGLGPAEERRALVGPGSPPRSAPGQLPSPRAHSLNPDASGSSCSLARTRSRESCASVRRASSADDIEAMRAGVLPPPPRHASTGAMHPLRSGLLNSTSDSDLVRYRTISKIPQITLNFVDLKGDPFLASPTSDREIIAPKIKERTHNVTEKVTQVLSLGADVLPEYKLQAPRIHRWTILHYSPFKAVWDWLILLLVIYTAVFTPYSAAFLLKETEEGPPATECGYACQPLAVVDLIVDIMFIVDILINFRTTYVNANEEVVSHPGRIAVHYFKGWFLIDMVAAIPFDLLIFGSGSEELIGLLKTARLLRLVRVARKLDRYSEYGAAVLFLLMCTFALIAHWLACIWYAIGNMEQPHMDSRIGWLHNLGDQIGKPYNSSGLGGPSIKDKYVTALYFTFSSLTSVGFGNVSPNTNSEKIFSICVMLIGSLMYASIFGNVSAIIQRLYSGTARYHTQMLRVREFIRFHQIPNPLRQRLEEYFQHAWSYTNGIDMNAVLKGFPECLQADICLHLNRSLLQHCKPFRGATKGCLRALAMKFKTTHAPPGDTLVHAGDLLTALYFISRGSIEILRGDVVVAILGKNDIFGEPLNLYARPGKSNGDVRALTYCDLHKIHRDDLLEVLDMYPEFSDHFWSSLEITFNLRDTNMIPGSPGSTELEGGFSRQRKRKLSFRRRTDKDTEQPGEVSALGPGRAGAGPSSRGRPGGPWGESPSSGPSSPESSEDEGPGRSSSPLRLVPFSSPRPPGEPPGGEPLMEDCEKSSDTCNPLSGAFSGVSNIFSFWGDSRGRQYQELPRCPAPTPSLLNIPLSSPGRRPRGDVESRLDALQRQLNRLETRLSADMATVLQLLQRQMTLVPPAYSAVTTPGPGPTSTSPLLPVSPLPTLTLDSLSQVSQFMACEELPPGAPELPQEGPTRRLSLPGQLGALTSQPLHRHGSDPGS
It gave 15% for mean inhibition (1.18 µM, measured concentration).
1.00 µM, nominal concentration — mean inhibition: 15%.
For 31.13 µM, measured concentration: mean inhibition read 77.5%.
The mean inhibition was 32.7% (3.39 µM, measured concentration).
3.00 µM, nominal concentration — mean inhibition: 32.7%.
It gave 56.2% for mean inhibition (10.00 µM, nominal concentration).
The mean inhibition was 77.5% (30.00 µM, nominal concentration).
It gave 56.2% for mean inhibition (11.04 µM, measured concentration).

Set 4 — read-out: enzyme activity; mode: inhibitor; concentration: 0.5 µM; relative to: control
Target: Mitogen-activated protein kinase 10 (MAPK10, Homo sapiens, UniProt P53779)
UniProt P53779, sequence (whole entry, looked up): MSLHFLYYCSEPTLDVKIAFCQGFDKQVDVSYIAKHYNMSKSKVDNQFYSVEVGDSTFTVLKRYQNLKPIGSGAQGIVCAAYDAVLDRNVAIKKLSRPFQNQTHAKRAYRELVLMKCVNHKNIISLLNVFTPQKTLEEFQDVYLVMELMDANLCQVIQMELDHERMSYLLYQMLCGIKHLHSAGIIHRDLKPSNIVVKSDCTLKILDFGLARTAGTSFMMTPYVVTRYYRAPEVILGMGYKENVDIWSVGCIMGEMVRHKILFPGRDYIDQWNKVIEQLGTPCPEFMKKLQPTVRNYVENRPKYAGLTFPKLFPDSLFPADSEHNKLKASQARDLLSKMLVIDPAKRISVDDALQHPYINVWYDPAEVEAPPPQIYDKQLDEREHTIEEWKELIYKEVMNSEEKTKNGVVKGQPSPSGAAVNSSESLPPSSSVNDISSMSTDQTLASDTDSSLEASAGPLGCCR
For `CN1CCN(c2ccc3nc(-c4c(N)c5c(F)cccc5[nH]c4=O)[nH]c3c2)CC1`, the remaining activity was 108%.
`COc1ccc(COc2ccc(Cc3cnc(N)nc3N)cc2OC)cc1` gave a remaining activity of 84.4%.
`O=Nc1c(-c2c(O)[nH]c3cc(Br)ccc23)[nH]c2ccccc12` has a remaining activity of 97.9%.
`O=C1NC(=O)/C(=C/c2ccc3c(c2)OC(F)(F)O3)S1` gave a remaining activity of 102%.
`O=Nc1c(-c2c(O)[nH]c3ccccc23)[nH]c2ccccc12` has a remaining activity of 96.4%.
For `COc1cccc(-c2cc(=O)c3ccccc3o2)c1N`, the remaining activity was 85.7%.
`COc1cc2c(Nc3ccc(Br)cc3F)ncnc2cc1OCC1CCN(C)CC1` gave a remaining activity of 96.9%.
`COc1cc2c(N3CCN(C(=O)Nc4ccc(OC(C)C)cc4)CC3)ncnc2cc1OCCCN1CCCCC1` has a remaining activity of 94.6%.
`CCCCc1c(-c2ccc(OC)cc2)[nH]c2nccnc12` has a remaining activity of 97.2%.
The remaining activity of `O=C1Nc2ccccc2/C1=C\c1c(Cl)[nH]c2ccccc12` is reported as 103%.
For `Cc1cc(Nc2cc(N3CCN(C)CC3)nc(Sc3ccc(NC(=O)C4CC4)cc3)n2)[nH]n1`, the remaining activity was 107%.
`O=C1Cc2c([nH]c3ccc(Br)cc23)-c2ccccc2N1` has a remaining activity of 89.6%.
`CCN(CC)CCCCN1c2ccccc2Oc2ccc(Cl)cc21` gave a remaining activity of 104%.
`c1ccc(-c2n[nH]c3c2oc2ccccc23)cc1` gave a remaining activity of 93.4%.
`O=C1NC(=O)c2c1c1c3ccccc3[nH]c1c1[nH]c3cc(Br)ccc3c21` has a remaining activity of 105%.
`NC(=O)c1ccc(-c2nc(-c3ccc4c(c3)OCCO4)c(-c3ccccn3)[nH]2)cc1` has a remaining activity of 99.9%.
`CNc1cc2c(Nc3cccc(Br)c3)ncnc2cn1` gave a remaining activity of 96.1%.
The remaining activity of `O=C1c2ccccc2-c2nc3nnnn3nc21` is reported as 55%.
For `c1cc(-c2cnn3cc(-c4ccc(OCCN5CCCCC5)cc4)cnc23)ccn1`, the remaining activity was 104%.
`CC(C)n1cnc2c(Nc3cccc(Cl)c3)nc(NCCO)nc21` has a remaining activity of 101%.
`Oc1cccc(-c2nc(N3CCOCC3)c3oc4ncccc4c3n2)c1` has a remaining activity of 102%.
`N#C/C(=C(/N)SC1C=CC=CC1)c1cccc(C(O)c2ccncc2)c1` (stereo not shown) has a remaining activity of 94.2%.
The remaining activity of `C[C@@H](N)[C@H]1CC[C@H](C(=O)Nc2ccncc2)CC1` is reported as 102%.
For `O=C(c1ccccc1)c1ccc(N2CCOCC2)cc1O`, the remaining activity was 75.3%.
With `CCCCc1c(-c2ccc(O)cc2)[nH]c2nccnc12` the remaining activity was 100%.

A few entries again (set 1):
With `COc1ccnc(C[S+]([O-])c2nc3ccc(OC(F)F)cc3[nH]2)c1OC` (stereo not shown) the inhibition was -50.6%.
`CC[C@H](C)C(=O)O[C@H]1C[C@@H](C)C=C2C=C[C@H](C)[C@H](CC[C@@H]3C[C@@H](O)CC(=O)O3)[C@H]21` gave an inhibition of -22.5%.
`CCCCC(=O)O[C@H]1CC[C@H]2[C@@H]3CCc4cc(O)ccc4[C@H]3CC[C@]12C` has an inhibition of -26.8%.
`COC1=C(OC)C(=O)C(CCCCCCCCCCO)=C(C)C1=O` has an inhibition of -26%.
The inhibition of `CCOC(=O)OC(C)OC1=C(C(=O)Nc2ccccn2)N(C)S(=O)(=O)c2ccccc21` (stereo not shown) is reported as -23.9%.
The inhibition of `C[N+]1(C)CCC(OC(=O)C(O)(c2ccccc2)C2CCCC2)C1.[Br-]` (stereo not shown) is reported as 2%.
For `N[C@@H](Cc1cc(I)c(Oc2cc(I)c(O)c(I)c2)c(I)c1)C(=O)O`, the inhibition was -36.8%.
